# Assay results collected from several papers.
# Every numbered part comes from another study and shows a few of its results, in no order. Positions count from the first letter of the parent shown.

# Block 1
# Target: Histone acetyltransferase KAT6A, both winged helices, GST fusion (KAT6A, Homo sapiens, UniProt Q92794, residues 1-181)
# Method: protein binding microarray
# Form: double-stranded DNA, one strand shown
# Matrix: in vitro
# Tested at: not given
# Notes: 8-mer, flanks averaged, mean of 2 arrays, mostly near background
# Relative to: not given
# Reading: higher = stronger binding
# Residues (chain): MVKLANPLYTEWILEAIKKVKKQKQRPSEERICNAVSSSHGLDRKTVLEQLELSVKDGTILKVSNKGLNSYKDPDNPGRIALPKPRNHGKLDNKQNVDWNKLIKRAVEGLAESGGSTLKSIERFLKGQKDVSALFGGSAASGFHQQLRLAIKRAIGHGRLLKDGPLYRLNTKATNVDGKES
Sequence,E-score
ACGGGTAG,0.201
AGTTCATA,-0.197
GATGCCAC,-0.111
GTCATGAA,-0.0332
ACATAGCG,0.162
CTCTGCTC,-0.263
GCCGTAGC,0.303
ATTCAGCG,0.151
CAACATCG,0.176
ATTTATGG,-0.076
ACTAACGA,-0.0472
CCAACTGA,-0.182
GGCTCACC,0.0225
AACGTACG,0.164
GTGAGCTA,-0.167
AACTGAAG,-0.0561
CCACCTCC,-0.13
CCAACTAC,-0.139
GAAAATGA,-0.0579
CGGCTTGC,0.204
GACAGTGC,0.0148
CAGTGGAA,-0.0266
ATCGCCAG,0.0314
CAGCAGGG,-0.0935
CGATAGAG,-0.122

# Block 2
# Target: Ras GTPase-activating protein-binding protein 1, full length (G3BP1, Homo sapiens, UniProt Q13283)
# Sequence of UniProt Q13283 (whole entry, looked up): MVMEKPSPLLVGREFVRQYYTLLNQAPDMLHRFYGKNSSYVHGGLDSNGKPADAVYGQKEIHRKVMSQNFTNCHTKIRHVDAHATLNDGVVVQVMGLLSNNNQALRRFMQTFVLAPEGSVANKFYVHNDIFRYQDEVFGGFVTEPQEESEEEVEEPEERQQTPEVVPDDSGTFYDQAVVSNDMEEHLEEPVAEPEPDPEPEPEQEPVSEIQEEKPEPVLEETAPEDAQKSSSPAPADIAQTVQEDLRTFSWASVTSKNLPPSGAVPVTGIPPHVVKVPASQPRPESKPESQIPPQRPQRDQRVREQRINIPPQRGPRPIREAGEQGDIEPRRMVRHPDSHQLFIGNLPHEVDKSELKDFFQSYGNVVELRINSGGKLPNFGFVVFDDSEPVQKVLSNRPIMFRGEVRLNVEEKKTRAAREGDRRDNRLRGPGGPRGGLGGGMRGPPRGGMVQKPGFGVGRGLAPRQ
# Method: RNA Bind-n-Seq
# Form: RNA
# Matrix: in vitro
# Tested at: 200 nM
# Notes: whole 134-nt RNA, ends assumed
# Added: 150 mM KCl
# Relative to: input library
# Reading: higher = stronger binding
# All sequences stand within: GGGAGUUCUACAGUCCGACGAUC … UGGAAUUCUCGGGUGUCAAGG
Sequence,log2 enrichment
CCUCAAGUCCUGUGCUACACAUCGUAUGUACCGAAUCGGGGCGGCGGGGCGGAAAGUAUUAUGUUACGCCGUUCGGAUCUGCACUUCCAG,0.177
GAUGAGACAGAUGCUUCAUCAGCAGUGAAAGUGAAAAGAGCAGUCCAGAAAACAUCCGAUUUAAUAGUGUUGGGUCUCCCAUGGAAAACA,-0.369
AAGUCCUGUGCUACACAUCGUAUGUACCGAAUCAAACCCAAAUUUAAAUUUUUAAAAAAGUAUUAUGUUACGCCGUUCGGAUCUGCACUU,-0.319
GUCCUGUGCUACACAUCGUAUGUACCGAAUCGGGGUUUUUGGUUUUUGGGUUUUUGGGGAAAGUAUUAUGUUACGCCGUUCGGAUCUGCA,-0.468
UCAAGUCCUGUGCUACACAUCGUAUGUACCGAAUCGGUUUGGUGGAAAAAAAGGAAAGUAUUAUGUUACGCCGUUCGGAUCUGCACUUCC,-0.711
UCCUGUGCUACACAUCGUAUGUACCGAAUCGGGGAAAAAGGGGUUUGGGGUUUUUGGGGAAAGUAUUAUGUUACGCCGUUCGGAUCUGCA,0.635
CAAGUCCUGUGCUACACAUCGUAUGUACCGAAUCGGAAAGGGGAAAGGGGAAAGGAAAGUAUUAUGUUACGCCGUUCGGAUCUGCACUUC,-0.426
UGUGCUACACAUCGUAUGUACCGAAUCGGGGUUUUUUUGGGGUUUUUUUGGGGUUUUUGGGGAAAGUAUUAUGUUACGCCGUUCGGAUCU,-0.571
CAAGUCCUGUGCUACACAUCGUAUGUACCGAAUCGGGAGGGAGGGAAAAAAAGGGAAAGUAUUAUGUUACGCCGUUCGGAUCUGCACUUC,0.252
CACAGACAACACGCACCCACACAGACACAGAGGGAAGGGGUUGGGAUGGGGACAGGGUGCACAGCAGAGCGGGGUAGGACCCCAGCCCCU,1.86

# Block 3
# Target: Cyclic AMP-dependent transcription factor ATF-1 (ATF1, Homo sapiens, UniProt P18846, residues 1-271, full length assumed)
# Method: protein-binding microarray
# Form: double-stranded DNA, one strand shown
# Matrix: in vitro
# Tested at: not given
# Notes: k-mer, scored over probes, only values ≥0.25
# Reading: higher = stronger binding
# Target sequence (chain): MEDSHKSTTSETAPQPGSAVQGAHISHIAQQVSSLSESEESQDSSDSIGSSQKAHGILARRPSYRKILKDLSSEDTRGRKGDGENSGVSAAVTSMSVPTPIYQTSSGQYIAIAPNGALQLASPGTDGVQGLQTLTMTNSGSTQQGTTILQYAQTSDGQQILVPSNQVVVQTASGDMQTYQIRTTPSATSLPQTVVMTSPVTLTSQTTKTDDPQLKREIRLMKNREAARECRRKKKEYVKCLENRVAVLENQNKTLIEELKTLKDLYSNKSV
Sequence,E-score
CGTAAAC,0.282
AAACGTC,0.337
CCGCGTC,0.299
ACGACAT,0.313
ACGACAC,0.251
GCCGTCA,0.32
CATGACA,0.296
ATGACGC,0.476
GGGGTGA,0.26
CGCGTAA,0.343
CTATTAC,0.308
ACGATGA,0.263
AGTCACG,0.274
ATACACG,0.255
AGCGTCA,0.439

# Block 4
# Target: Prothrombin, mature alpha-thrombin (F2, Homo sapiens, UniProt P00734)
# Method: aptamer microarray, sandwich
# Form: DNA with 2'F-ANA
# Matrix: in vitro
# Tested at: 200 nM
# Notes: whole 15-mer aptamer, many near background
# Added: Cy3 exosite-II aptamer, 400 nM
# Reading: higher = stronger binding
# Sequence: GGTTGGTGTGGTTGG
Modification,mean fluorescence intensity [a.u.]
2'F-ANA at 1 3 4 7 11 12 14 15,84.9
2'F-ANA at 2 3 4 5 8 13,68.3
2'F-ANA at 2 6 8 10 12 15,142
2'F-ANA at 2 5 6 10 11 13 14 15,48
2'F-ANA at 2 5 6 8 9 10 13 14,44
2'F-ANA at 1 2 5 6 8 9 10 11,45.7
2'F-ANA at 1 2 3 5 7 9 11 14 15,48.3
2'F-ANA at 1 2 3 4 5 8 9 10 11,54
2'F-ANA at 1 4 7 10 12 13 14 15,57.1
2'F-ANA at 1 2 3 7 8 10 12 13,96.3
2'F-ANA at 1 2 4 8 9 12 13 14,54.6
2'F-ANA at 2 3 4 5 6 7 10 12 13 15,73
2'F-ANA at 1 5 6,54.1
2'F-ANA at 1 2 3 4 8 11 13,161
2'F-ANA at 1 2 3 4 6 7 8 13 14 15,68.2
2'F-ANA at 4 6 8 9 11,212
2'F-ANA at 2 3 4 5 6 7 10 14,47
2'F-ANA at 1 4 6 7 8 11 12,230
2'F-ANA at 1 6 8 9 10 11 15,58
2'F-ANA at 1 2 4 8 10 12 13 14,45

# Block 5
# Target: ABI1, truncated, D143A, DHFR fusion (Arabidopsis thaliana)
# Method: DHFR PCA, deep sequencing
# Matrix: yeast
# Notes: methotrexate growth selection, single substitutions
# Added: (+)-ABA 4.8 µM
# Relative to: wild-type fitted maximum
# Reading: higher = stronger binding
# Starting sequence: PYL1, truncated, DHFR fusion (Arabidopsis thaliana); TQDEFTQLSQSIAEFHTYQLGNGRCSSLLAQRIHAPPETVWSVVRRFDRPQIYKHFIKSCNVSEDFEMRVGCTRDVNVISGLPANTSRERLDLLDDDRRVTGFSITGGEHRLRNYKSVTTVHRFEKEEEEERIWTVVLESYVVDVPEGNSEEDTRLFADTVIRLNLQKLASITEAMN; partner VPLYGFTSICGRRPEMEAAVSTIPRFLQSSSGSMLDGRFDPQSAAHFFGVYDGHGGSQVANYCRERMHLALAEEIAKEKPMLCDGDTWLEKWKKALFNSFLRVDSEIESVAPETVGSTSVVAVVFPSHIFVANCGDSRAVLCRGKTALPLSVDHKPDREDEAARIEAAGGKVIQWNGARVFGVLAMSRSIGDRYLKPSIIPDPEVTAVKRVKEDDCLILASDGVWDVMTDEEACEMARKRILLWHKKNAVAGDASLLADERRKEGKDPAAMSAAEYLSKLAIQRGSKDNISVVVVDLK
Substitution,relative binding score
R74E,0.0808%
S42F,8.73%
S11T,70%
N177L,62%
R90S,19.1%
K126A,89.8%
V76C,54.2%
R90P,8.03%
R69I,69.1%
I172S,-10.1%
V62W,1.99%
S42V,10.4%
D97H,64.6%
D153M,-13.3%
A84C,36.5%
V76W,-1.17%
N22P,80.1%
V76G,2.07%
E89Q,0.804%
S80N,31.1%
